Experimental data gathered from unrelated publications.
Protocols differ between the studies behind these lines.
Organism: Escherichia coli

| SMILES | assay | system | setting | MIC |
| --- | --- | --- | --- | --- |
| CC[C@H]1OC(=O)[C@H](C)[C@@H](O[C@H]2C[C@@](C)(OC)[C@@H](O)[C@H](C)O2)[C@H](C)[C@@H](O[C@@H]2O[C@H](C)C[C@H](N(C)C)[C@H]2O)[C@](C)(O)C[C@@H](C)CN(C)[C@H](C)[C@@H](O)[C@]1(C)O | checkerboard broth microdilution | Mueller-Hinton II broth | compound alone | 8 µM |
| CCO/N=C(\C(=O)N[C@@H]1C(=O)N2C(C(=O)[O-])=C(Sc3nc(-c4cc[n+](C)cc4)cs3)CS[C@H]12)c1nsc(NP(=O)(O)O)n1 | broth microdilution | – | 24 h, 37 °C, clinical isolate | > 400 µM |
| N=C(N)c1ccc(OCc2ccc3ccc(COc4ccc(C(=N)N)cc4)cc3c2)cc1 | – | BW25113 | compound alone, with: erythromycin checkerboard | > 200 µg/mL |
| C/C(=N/NC(=O)c1cn(-c2ccccc2)nc1-c1ccc(Cl)cc1)c1c(O)cc(C)oc1=O | – | DH5α | – | 300 µg/mL |
| CC[C@H](C)CCCCC(=O)N[C@@H](CCN)C(=O)N[C@H](C(=O)N[C@@H](CCN)C(=O)N[C@H]1CCNC(=O)[C@H]([C@@H](C)O)NC(=O)[C@H](CCN)NC(=O)[C@H](CCN)NC(=O)[C@H](CC(C)C)NC(=O)[C@@H](CC(C)C)NC(=O)[C@H](CCN)NC1=O)[C@@H](C)O | – | ATCC 25922 | with: LPS 1 mg/mL | > 14 µM |
| C[C@@H]1O[C@@H]1P(=O)(O)O | broth microdilution | ATCC 25922 | ambient air | 1 µg/mL |
| CCn1cc(C(=O)O)c(=O)c2ccc(C)nc21 | broth microdilution | – | 18 h | 4 µg/mL |
| Cn1nnc(-c2ccc(-c3ccc(N4C[C@H](COP(=O)(O)O)OC4=O)cc3F)cn2)n1 | broth microdilution | – | compound alone | > 80 µM |
| CC(C)(CN)CNCc1nc2ccccc2n1CCOc1ccccc1 | – | ATCC 25922 | – | 64 µg/mL |
| CC1(C)S[C@@H]2[C@H](/N=C/N3CCCCCC3)C(=O)N2[C@H]1C(=O)O | – | ATCC 25922 | – | 1.3 µM |
| N=C(N)c1ccc(OCc2ccc(COc3ccc(C(=N)N)cc3)cc2)cc1 | – | BW25113 | compound alone, with: erythromycin checkerboard | > 200 µg/mL |
| O=[N+]([O-])c1ccc(O)c2ncccc12 | – | – | – | 12.5 µM |
| Cc1c(CN(C)C(=O)/C=C/c2cnc3c(c2)CC(CCN)C(=O)N3)oc2ccccc12.Cl (centres unmarked) | broth microdilution | AR-0346 | – | 4 µg/mL |
| CO[C@H]1/C=C/O[C@@]2(C)Oc3c(C)c(O)c4c(O)c(c(/C=N/N5CCN(C)CC5)c(O)c4c3C2=O)NC(=O)/C(C)=C\C=C\[C@H](C)[C@H](O)[C@@H](C)[C@@H](O)[C@@H](C)[C@H](OC(C)=O)[C@@H]1C | broth microdilution OD600 | Mueller-Hinton broth | 24 h, 37 °C, with: 6 µM NH4Cl | 16 µM |
| N=C(N)c1ccc(OCCSCCOc2ccc(C(=N)N)cc2)cc1 | – | BW25113 | compound alone, rifampicin checkerboard | > 200 µg/mL |
| CC(C)Oc1c(NC(=O)c2ccc(NC(=O)[C@H](CC(N)=O)NC(=O)c3cc(F)c(/N=N/c4c(F)cccc4F)c(F)c3)cc2)ccc(C(=O)N/N=C/c2ccc(C(=O)O)s2)c1O | – | BW25113 | dark ground state | > 6.4 µg/mL |
| CCC(CC)c1cc(CCN2CCCN(Cc3ccc(C(F)(F)F)cc3)CC2)nc(-c2ccncc2)n1 | broth microdilution | ATCC 25922 | – | > 64 µg/mL |
| COc1cc(Cc2cnc(N)nc2N)cc(OC)c1OC | – | ATCC 25922 | – | 5 µM |
| N[C@@H](C(=O)N[C@@H]1C(=O)N2C(C(=O)O)=C(Cl)CS[C@H]12)c1ccccc1 | broth microdilution | – | 18 h | 2 µg/mL |
| CC1CCC(C(C)C)C(OC2=C(Cl)C(=O)c3ccccc3C2=O)C1 (centres unmarked) | broth microdilution | MTCC 405 | – | 12 µg/mL |
| CN[C@@H]1[C@@H](O[C@H]2O[C@H](CO)[C@@H](N)[C@H](O)[C@H]2O)OC2C[C@@H](N)[C@@H](O[C@H]3[C@H](O)[C@@H](O)[C@H](N)C[C@@H]3N)OC2[C@@H]1O (some centres unmarked) | broth microdilution | ATCC 25922 | 5% CO2 | 16 µg/mL |
| CC1(C)S[C@@H]2[C@H](NC(=O)[C@H](N)c3ccccc3)C(=O)N2[C@H]1C(=O)O | – | ATCC 25922 | 16 h | 8 µg/mL |

| SMILES | assay | system | setting | MIC |
| --- | --- | --- | --- | --- |
| CO[C@H]1/C=C/O[C@@]2(C)Oc3c(C)c(O)c4c(O)c(c(/C=N/Nc5ccc(OC(F)(F)F)cc5)c(O)c4c3C2=O)NC(=O)/C(C)=C\C=C\[C@H](C)[C@H](O)[C@@H](C)[C@@H](O)[C@H](C)[C@H](OC(C)=O)[C@@H]1C | – | ATCC 25922 | – | 20 µM |
| Cc1cc(-c2cn[nH]c2-c2cccc(OCc3cccc(C#N)c3)c2)cc(C)n1 | broth microdilution | AR-0349 colistin-resistant | – | 1 µg/mL |
| CN(C)c1ccc2nc3ccc(=[N+](C)C)cc-3sc2c1 | – | ATCC BAA-196, resistant | 18 h, 37 °C, dark | > 128 µM |
| C=C[C@]1(C)C[C@@H](OC(=O)CSCCN(CC)CC)[C@]2(C)[C@H](C)CC[C@]3(CCC(=O)[C@H]32)[C@@H](C)[C@@H]1O | – | ATCC 25922 | – | > 40 µM |
| NCC[C@H](O)C(=O)N[C@@H]1C[C@H](N)[C@@H](O[C@H]2O[C@H](CN)[C@@H](O)[C@H](O)[C@H]2O)[C@H](O)[C@H]1O[C@H]1O[C@H](CO)[C@@H](O)[C@H](N)[C@H]1O | broth microdilution | ATCC 25922 | 5% CO2 | 8 µg/mL |
| CC(C)Oc1c(NC(=O)c2ccc(N3C(=O)C[C@H](NC(=O)c4ccc(NC(=O)c5ccc(C#N)cc5)cc4)C3=O)cc2)ccc(C(=O)N/N=C/c2cnn(C)c2)c1O | – | BW25113 | 18 h, 37 °C, irradiated at 365 nm, photostationary state | 0.33 µg/mL |
| CO[C@H]1/C=C/O[C@@]2(C)Oc3c(C)c(OC(=O)c4ccco4)c4c(c3C2=O)C(=O)C(C2CC(C)OC(C)C2)=C(NC(=O)/C(C)=C/C=C/[C@H](C)[C@H](O)[C@@H](C)[C@@H](O)[C@@H](C)[C@H](OC(C)=O)[C@H]1C)C4=O (some centres unmarked) | – | ATCC 25922 | – | 20 µM |
| N=C(N)c1ccc(OCc2cc(Br)cc(COc3ccc(C(=N)N)cc3)c2)cc1 | – | 552100 | compound alone | 100 µg/mL |
| CCCN1C[C@H](C)[C@@H](O)[C@](C)(O)[C@@H](CC)OC(=O)[C@H](C)[C@@H](O[C@H]2O[C@@H](C)C[C@@H](N(C)C)[C@@H]2O)[C@H](C)[C@@H](O[C@@H]2C[C@](C)(OC)[C@H](O)[C@@H](C)O2)[C@](C)(O)C[C@H]1C | – | ATCC 25922 | – | 10 µM |
| CC(C)Oc1c(NC(=O)c2ccc(N3C(=O)C[C@H](NC(=O)c4cc(F)c(/N=N/c5c(F)cccc5F)c(F)c4)C3=O)cc2)ccc(C(=O)N/N=C/c2c(Cl)cncc2Cl)c1O | – | BW25113 | after 1 h irradiation at 450 nm | > 6.4 µg/mL |
| CN[C@H](CC(C)C)C(=O)N[C@H]1C(=O)N[C@@H](CC(N)=O)C(=O)N[C@H]2C(=O)N[C@H]3C(=O)N[C@H](C(=O)N[C@H](C(=O)O)c4cc(O)cc(O)c4-c4cc3ccc4O)[C@H](O)c3ccc(c(Cl)c3)Oc3cc2cc(c3O[C@@H]2O[C@H](CO)[C@@H](O)[C@H](O)[C@H]2O[C@H]2C[C@](C)(N)[C@H](O)[C@H](C)O2)Oc2ccc(cc2Cl)[C@H]1O | – | DSM 1116 | iron-depleted medium | > 20 µM |
| N=C(N)c1ccc(OCc2cccc(COc3ccc(C(=N)N)cc3)c2)cc1 | – | 552100 | in combination, checkerboard, with: rifampicin | 12.5 µg/mL |
| C[C@H]1COc2c(N3CCN(C)CC3)c(F)cc3c(=O)c(C(=O)O)cn1c23 | broth microdilution | – | 18 h | 0.0313 µg/mL |
| Cc1c(CN(C)C(=O)/C=C/c2cnc3c(c2)CC(NC(=O)OC(C)(C)C)C(=O)N3)oc2ccccc12 (centres unmarked) | broth microdilution | AR-0085 | – | > 32 µg/mL |
| O=C(Cc1ccccc1)N[C@@H]1C(=O)N2C(C(=O)O)=C(CSc3cccc4cccnc34)CS(=O)(=O)[C@H]12 | – | 25922 | – | 128 µg/mL |
| CC1(C)S[C@@H]2[C@H](NC(=O)C(C(=O)O)c3ccccc3)C(=O)N2[C@H]1C(=O)O (some centres unmarked) | broth microdilution | BW25113 wild type | 18 h | 6.25 µg/mL |
| NC[C@H]1O[C@H](O[C@H]2[C@H](O)[C@@H](O[C@H]3O[C@H](CO)[C@@H](O)[C@H](N)[C@H]3O)[C@H](N)C[C@@H]2N)[C@H](N)C[C@@H]1O | broth microdilution | ATCC 25922 | 5% CO2 | 2 µg/mL |
| C[C@H]1c2cccc(O)c2C(=O)C2=C(O)[C@]3(O)C(=O)C(C(N)=O)=C(O)[C@@H](N(C)C)[C@@H]3[C@@H](O)[C@@H]21 | broth microdilution | – | 18 h | 4 µg/mL |
| N=C(N)c1ccc(OCCCCCCCOc2ccc(C(=N)N)cc2)cc1 | – | BW25113 | compound alone, with: erythromycin checkerboard | > 100 µg/mL |
| C[C@@H](O)[C@H]1C(=O)N2C(C(=O)O)=C(S[C@@H]3CN[C@H](C(=O)N(C)C)C3)[C@H](C)[C@H]12 | broth microdilution, MH medium | K1 ATCC 700973 | 16 h, 37 °C, growth inhibition over 99% | 0.5 µM |
| C[C@@H](O)[C@H]1C(=O)N2C(C(=O)O)=C(S[C@@H]3CN[C@H](C(=O)N(C)C)C3)[C@H](C)[C@H]12 | – | ATCC 25922 | – | 0.31 µM |
| C=C/C=C(\C)CC[C@@H]1C[C@@H](O)CC(=O)O1 | broth microdilution | KCTC 2571 | – | 128 µg/mL |
